Assay results gathered from unrelated publications.
Protocols differ between the studies behind these lines. ± gives the spread as reported.
PDGFRB: Platelet-derived growth factor receptor beta (PDGFRB, Homo sapiens, UniProt P09619)
KDR: Vascular endothelial growth factor receptor 2 (KDR, Homo sapiens, UniProt P35968)
CTSL: Procathepsin L (CTSL, Homo sapiens, UniProt P07711)
EGLN1: Egl nine homolog 1 (EGLN1, Homo sapiens, UniProt Q9GZT9)

`N#C/C(=C\c1cccc(-c2cnc3[nH]cnc3c2)c1)C(N)=O` has an IC50 of > 10000 nM (Non-receptor tyrosine-protein kinase TYK2 (TYK2, Homo sapiens, UniProt P29597); kinase activity, inhibitor; up to highest tested, with: ATP at Km).
`Cc1cc(/N=N/c2ccc(/N=N/c3ccc(O)c(C(=O)O)c3)cc2)c(N)cc1N` has an IC50 of 4000 nM (PH domain leucine-rich repeat-containing protein phosphatase 2 (Homo sapiens, UniProt Q6ZVD8); enzyme activity, inhibitor, absorbance).
`N=C(CCl)NCCC[C@H](Nc1ccc([N+](=O)[O-])c2nonc12)C(=O)NCc1ccccc1` gave an IC50 of 2390 nM (Protein-arginine deiminase type-4 (PADI4, Homo sapiens, UniProt Q9UM07); enzyme activity, inhibitor, absorbance).
`COc1cc2nccc(Oc3ccc(NC(=S)Nc4cccnc4)c(Cl)c3)c2cc1C(N)=O` gave an IC50 of 54.2 nM (PDGFRB).
With `CC(C)CCn1c(CN2CCCN(C(=O)C3CC3)CC2)nc2c1c(=O)n(C)c(=O)n2C` the IC50 was 320 ± 111 nM (Aldehyde dehydrogenase 1A1 (ALDH1A1, Homo sapiens, UniProt P00352)).
`COc1cc2nccc(Oc3ccc(NC(=S)NCc4cccnc4)c(Cl)c3)c2cc1C(N)=O` gave an IC50 of 128 nM (KDR).
The IC50 of `OCc1ccccc1S[C@@H]1O[C@H](CO)[C@@H](O)[C@H](O)[C@H]1O` is reported as 9000 nM (Sodium/glucose cotransporter 1 (SLC5A1, Homo sapiens, UniProt P13866); transporter uptake, inhibitor, radiometric).
`Cc1ccc(NC(=O)CNS(=O)(=O)c2nc(-c3ccc(OC(F)(F)F)cc3)cc(C(F)(F)F)n2)cc1` gave an IC50 of 57 nM (Bifunctional 3'-5' exonuclease/ATP-dependent helicase WRN (WRN, Homo sapiens, UniProt Q14191); DNA unwinding, inhibitor, TAMRA dequenching; 10 nM full-length enzyme, 500 nM trap DNA, with: 50 nM DNA substrate, 60 µM ATP).
For `COCC1CN(C2CCN(c3cc(OC)c(Nc4ncc(Br)c(Nc5ccc6c(c5P(C)(C)=O)OCCO6)n4)cc3C)CC2)C1`, the IC50 was < 1.5 nM (Epidermal growth factor receptor (EGFR, Homo sapiens, UniProt P00533, C797S/del746-750); kinase activity, TR-FRET; with: ATP at Km).
For `CC(C)[C@H](NC(=O)[C@H](C)NC(=O)[C@H](Cc1c[nH]c2ccccc12)NC(=O)[C@H](Cc1c[nH]cn1)NC(=O)[C@H](N)Cc1ccc(O)cc1)C(=O)N[C@H](C)C(=O)N[C@@H](Cc1c[nH]cn1)C(=O)N1CCC[C@@H]1CN[C@@H](Cc1ccccc1)C(N)=O`, the IC50 was > 10000 nM (Neuromedin-B receptor (NMBR, Homo sapiens, UniProt P28336); inositol phosphate generation, antagonist; Balb 3T3 expressing NMBR; with: neuromedin B 1 nM).
The IC50 of `COc1ccc(C2Sc3ccccc3NC3=C2C(=O)c2ccccc23)cc1` (racemic) is reported as > 20000 nM (Type II NADH dehydrogenase (Plasmodium falciparum, UniProt Q8I302); enzyme activity, inhibitor, fluorescence NAD+ quantitation; recombinant enzyme).
`N=C(N)NCCC[C@@H]1NC(=O)[C@H](Cc2c[nH]c3ccccc23)NC(=O)[C@H](CCCNC(=N)N)NC(=O)[C@H](Cc2c[nH]c3ccccc23)NC(=O)[C@H](CCCNC(=N)N)NC(=O)[C@H](Cc2c[nH]c3ccccc23)NC(=O)[C@H](CCCNC(=N)N)NC(=O)[C@H](Cc2c[nH]c3ccccc23)NC(=O)[C@H](CCCNC(=N)N)NC(=O)[C@H](Cc2c[nH]c3ccccc23)NC(=O)[C@H](CCCNC(=N)N)NC(=O)[C@H](Cc2c[nH]c3ccccc23)NC1=O` gave an IC50 of 1450 nM (Cyclin-dependent kinase 2, with cyclin A1 (CDK2, Homo sapiens, UniProt P24941); enzyme activity, inhibitor).
`N#Cc1nc(N2CCOCC2)nc(N(Cc2ccc(F)cc2)CC2CCCC2)n1` gave an IC50 of 60 nM (CTSL; enzyme activity, inhibitor, fluorescence).
With `O=C1OC(c2ccc(O)cc2)Cc2cccc(OC3OC(CO)C(O)C(O)C3O)c21` (centres unmarked) the IC50 was > 100000 nM (Alpha-glucosidase MAL12 (MAL12, Saccharomyces cerevisiae S288c, UniProt P53341); enzyme activity, inhibitor, absorbance).
With `Oc1c(C(Nc2nccs2)c2cccc(OCc3ccccc3)c2)ccc2cccnc12` (centres unmarked) the IC50 was 2990 nM (Genome polyprotein, protease (Dengue virus type 2, UniProt P14340); enzyme activity, inhibitor, fluorescence).
`C[C@@]12CC[C@@H]3c4cc(Cl)c(O)cc4CC[C@H]3[C@@H]1CCC2=O` gave an IC50 of 8700 nM (Aldo-keto reductase family 1 member C3 (AKR1C3, Homo sapiens, UniProt P42330); enzyme activity, inhibitor, absorbance; pH 9).
`CCn1c(-c2cc(NC(=O)c3cnccn3)n[nH]2)cc2ccc(OC)cc21` gave an IC50 of 110 ± 0.35 nM (Casein kinase II subunit alpha' (CSNK2A2, Homo sapiens, UniProt P19784)).
`O=c1c2ccccc2sn1Cc1ccccc1` has an IC50 of 4790 nM (Histone deacetylase 5 (HDAC5, Homo sapiens, UniProt Q9UQL6); enzyme activity, inhibitor).
`COc1cc2nccc(Oc3ccc4sc(NCC(C)C)nc4c3)c2cc1C(N)=O` gave an IC50 of > 10000 nM (KDR).
With `OC(c1ccccc1)(c1cccs1)c1cccs1` the IC50 was 9000 nM (Intermediate conductance calcium-activated potassium channel protein 4 (KCNN4, Homo sapiens, UniProt O15554); ion current, inhibitor, patch clamp).
`COc1cc2nccc(Oc3ccc(NC(=S)N4CCC4)c(Cl)c3)c2cc1C(N)=O` gave an IC50 of 63.1 nM (PDGFRB).
The IC50 of `COc1ccccc1C(=O)Nc1cccc(-c2nc3ncccc3o2)c1` is reported as 155 ± 26 nM (Nucleoside transporter 1 (Plasmodium vivax, UniProt A5K8B0); yeast growth; purine auxotrophic yeast expressing target; 15 to 17 h, with: adenosine 1 mM).
`O=C(O)CCCC(=O)NNC(=O)c1nccc2ccccc12` has an IC50 of > 300000 nM (EGLN1; inhibitor, AlphaScreen; bimodal curve, rough estimate, with: 2 µM 2-oxoglutarate).
For `NC1CCC(Nc2nccc(-c3cccnc3Oc3ccc(NS(=O)(=O)c4ccccc4Cl)c4ccccc34)n2)CC1` (centres unmarked), the IC50 was 22 ± 9 nM (Serine/threonine-protein kinase/endoribonuclease IRE1, RNase domain (ERN1, Homo sapiens, UniProt O75460); RNase activity, inhibitor; with: XBP1 mini-substrate).
The IC50 of `CCCCNC(=O)c1cccc(S(=O)(=O)NC2CC2)c1` is reported as 2880 nM (Ectonucleoside triphosphate diphosphohydrolase 2 (Homo sapiens, UniProt Q9Y5L3); enzyme activity, inhibitor, absorbance).
`COc1ccc(-c2c[nH]c3ccnc(Nc4ccc(Oc5ncnc6cc(OC)c(OC)cc56)c(F)c4)c3c2=O)cc1` has an IC50 of 602 nM (Hepatocyte growth factor receptor (MET, Homo sapiens, UniProt P08581); kinase activity, inhibitor, HTRF).
`CC(C)(C)OC(=O)N1CCN(c2ccc3c(O)c(C(=O)NCc4ccc(C#N)nc4)ncc3n2)CC1` gave an IC50 of 2.5 nM (EGLN1; enzyme activity, inhibitor, AlphaScreen).
`CC(C)CCN(Cc1ccc(F)cc1)c1nc(C#N)nc(N2CCOCC2)n1` gave an IC50 of 32 nM (CTSL; enzyme activity, inhibitor, fluorescence).
With `CCOC(=O)/C=C/CN(CC)CCCCN1c2ccccc2CCc2ccc(Cl)cc21` the IC50 was 1770 nM (E3 ubiquitin-protein ligase NEDD4, HECT domain (Homo sapiens, UniProt P46934); ubiquitination, inhibitor, TR-FRET; 1 h preincubation).
For `COC(=O)C1=CNC=C(C(=O)OC)C1c1ccc(F)c(C(F)(F)F)c1`, the IC50 was 2000 nM (Intermediate conductance calcium-activated potassium channel protein 4 (KCNN4, Homo sapiens, UniProt O15554, T250S/V275A); ion current, inhibitor, patch clamp).
`Cc1ccc(CNC(=O)[C@H](CCc2ccccc2)NC(=O)[C@H](CCc2ccccc2)NC(=O)Cc2cccc(Oc3ccccc3)c2)cc1` has an IC50 of 83000 nM (PSMB6/PSMB7 (Homo sapiens, UniProt P28072+Q99436); inhibitor).
For `CCN(CC)CCNC(=O)c1cc2c(Oc3ccc(NC(=S)NC4CC4)c(Cl)c3)ccnc2cc1OC`, the IC50 was 102 nM (PDGFRB).
For `CCNc1nc(N)c(C(=O)c2ccc(Cl)s2)s1`, the IC50 was 400 nM (GSK3 (Trypanosoma brucei, UniProt Q388M1); enzyme activity, inhibitor, radiometric).
The IC50 of `COc1cc2nccc(Oc3ccc(NC(=S)Nc4cc[nH]n4)c(Cl)c3)c2cc1C(N)=O` is reported as 348 nM (PDGFRB).
The IC50 of `CC(C)(C)NCCCNC(=O)c1ccnc(Br)c1` is reported as > 100000 nM (E3 ubiquitin-protein ligase UHRF1 (UHRF1, Homo sapiens, UniProt Q96T88); methyl-lysine reader binding, inhibitor, AlphaScreen).

Excerpt of the above:
With `O=C1OC(c2ccc(O)cc2)Cc2cccc(OC3OC(CO)C(O)C(O)C3O)c21` (centres unmarked) the IC50 was > 100000 nM (Alpha-glucosidase MAL12 (MAL12, Saccharomyces cerevisiae S288c, UniProt P53341); enzyme activity, inhibitor, absorbance).
The IC50 of `OCc1ccccc1S[C@@H]1O[C@H](CO)[C@@H](O)[C@H](O)[C@H]1O` is reported as 9000 nM (Sodium/glucose cotransporter 1 (SLC5A1, Homo sapiens, UniProt P13866); transporter uptake, inhibitor, radiometric).
For `CC(C)[C@H](NC(=O)[C@H](C)NC(=O)[C@H](Cc1c[nH]c2ccccc12)NC(=O)[C@H](Cc1c[nH]cn1)NC(=O)[C@H](N)Cc1ccc(O)cc1)C(=O)N[C@H](C)C(=O)N[C@@H](Cc1c[nH]cn1)C(=O)N1CCC[C@@H]1CN[C@@H](Cc1ccccc1)C(N)=O`, the IC50 was > 10000 nM (Neuromedin-B receptor (NMBR, Homo sapiens, UniProt P28336); inositol phosphate generation, antagonist; Balb 3T3 expressing NMBR; with: neuromedin B 1 nM).
For `COC(=O)C1=CNC=C(C(=O)OC)C1c1ccc(F)c(C(F)(F)F)c1`, the IC50 was 2000 nM (Intermediate conductance calcium-activated potassium channel protein 4 (KCNN4, Homo sapiens, UniProt O15554, T250S/V275A); ion current, inhibitor, patch clamp).
With `OC(c1ccccc1)(c1cccs1)c1cccs1` the IC50 was 9000 nM (Intermediate conductance calcium-activated potassium channel protein 4 (KCNN4, Homo sapiens, UniProt O15554); ion current, inhibitor, patch clamp).
